Results pooled from the literature.
Numbered parts are unrelated; each lists some results of a single study. Values joined by “and” are separate records of one study, mostly repeats; a detail may differ. Positions count from the first letter of the parent shown.
Chain of UniProt O43781 (whole entry, looked up): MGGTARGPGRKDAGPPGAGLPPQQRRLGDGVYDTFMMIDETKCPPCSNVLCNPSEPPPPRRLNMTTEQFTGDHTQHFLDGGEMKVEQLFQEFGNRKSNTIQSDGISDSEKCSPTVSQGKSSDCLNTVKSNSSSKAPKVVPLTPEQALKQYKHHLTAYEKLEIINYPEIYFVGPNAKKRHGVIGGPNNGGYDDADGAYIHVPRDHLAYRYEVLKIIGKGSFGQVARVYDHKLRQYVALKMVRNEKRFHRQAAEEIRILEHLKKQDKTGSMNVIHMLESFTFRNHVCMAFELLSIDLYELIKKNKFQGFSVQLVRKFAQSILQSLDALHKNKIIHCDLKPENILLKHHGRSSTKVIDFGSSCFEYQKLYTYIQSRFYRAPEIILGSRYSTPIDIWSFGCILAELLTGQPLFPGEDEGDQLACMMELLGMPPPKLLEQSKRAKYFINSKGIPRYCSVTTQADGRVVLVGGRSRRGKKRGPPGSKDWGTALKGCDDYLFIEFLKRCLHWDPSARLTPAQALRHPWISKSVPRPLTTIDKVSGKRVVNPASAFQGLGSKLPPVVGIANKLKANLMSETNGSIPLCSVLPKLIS

Series 1 — read-out: peptide-MHC binding; form: peptide; concentration: concentration not given; quantity: binding
Target: HLA class I histocompatibility antigen, C alpha chain, allele C*04:01 (Homo sapiens, UniProt P10321)
HTLESPVEF: inactive
YARRYFYPL: inactive
FYADPKRYF: inactive
MGAGLVFPI: inactive
MPMSMPIPM: inactive
YYNAFHWA: inactive
YAREAGIAM: inactive
YTITSLFSL: inactive

Series 2 — target: CCNA1, cyclin fold, Cln2 fusion (human); method: yeast growth competition, sequencing; sample: yeast; setting: strong parent motif; relative to: not given; reading: higher = stronger binding; quantity: normalised enrichment score
Parent: viral docking peptide; YKVKRRLVFGADD; partner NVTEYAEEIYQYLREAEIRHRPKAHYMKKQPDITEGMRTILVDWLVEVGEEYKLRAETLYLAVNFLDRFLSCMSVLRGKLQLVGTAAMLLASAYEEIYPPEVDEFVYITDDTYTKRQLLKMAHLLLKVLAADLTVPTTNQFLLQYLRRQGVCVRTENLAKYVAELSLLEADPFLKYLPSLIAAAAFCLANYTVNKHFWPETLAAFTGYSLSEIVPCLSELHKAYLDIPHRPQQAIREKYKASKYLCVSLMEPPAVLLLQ
YNVKRRLVFGADD [K2N]: 1.34
YKRKRRLVFGADD [V3R]: 0.616
YKVKRRLVFGRDD [A11R]: 1.35
YKVKRRLVHGADD [F9H]: 0.455
YQVKRRLVFGADD [K2Q]: 1.26
YKVKRRLVFGHDD [A11H]: 1.29
YKVKRRLVFGFDD [A11F]: 1.11
YKVMRRLVFGADD [K4M]: -0.588

Series 3 — read-out: cell-free assay; method: competition with immobilised ligand; concentration: 1 µM; quantity: remaining binding
Target: Serine/threonine-protein kinase PknB (pknB, Mycobacterium tuberculosis, UniProt P9WI81)
Chain of UniProt P9WI81 (whole entry, looked up): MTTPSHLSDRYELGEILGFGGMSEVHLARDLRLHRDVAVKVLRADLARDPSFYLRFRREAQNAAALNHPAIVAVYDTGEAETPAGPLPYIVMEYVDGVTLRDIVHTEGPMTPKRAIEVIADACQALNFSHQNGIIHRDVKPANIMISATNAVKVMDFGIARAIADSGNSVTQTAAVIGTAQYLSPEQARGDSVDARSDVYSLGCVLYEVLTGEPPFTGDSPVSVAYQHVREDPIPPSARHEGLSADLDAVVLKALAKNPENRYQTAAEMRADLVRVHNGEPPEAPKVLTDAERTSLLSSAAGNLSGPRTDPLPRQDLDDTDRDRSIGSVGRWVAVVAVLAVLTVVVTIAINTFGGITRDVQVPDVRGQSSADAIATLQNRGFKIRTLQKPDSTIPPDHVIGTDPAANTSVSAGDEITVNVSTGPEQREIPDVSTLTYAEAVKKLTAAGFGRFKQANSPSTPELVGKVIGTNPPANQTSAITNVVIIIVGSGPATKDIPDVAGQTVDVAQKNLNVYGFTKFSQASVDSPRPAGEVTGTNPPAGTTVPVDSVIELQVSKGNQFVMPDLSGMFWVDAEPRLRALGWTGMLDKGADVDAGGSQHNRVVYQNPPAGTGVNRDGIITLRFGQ
C[C@@H](c1cccc(C#N)c1)n1cc(Cl)cc(C(N)=O)c1=N: 100%
O=C1CCc2cc(Nc3cc(OC4CCOCC4)c([N+](=O)[O-])cc3Cl)ccc2N1: 94%
CC(=O)N1CCC(c2ccc(C(=O)NC3=NCCN3)cc2C(F)(F)F)CC1: 100%

Mixed results
O=C1NC(=O)c2c1c1c3ccccc3n3c1c1c2c2ccccc2n1[C@H]1CC[C@@H]3O1 — remaining activity (Receptor tyrosine-protein kinase erbB-2 (ERBB2, Homo sapiens, UniProt P04626); enzyme activity, inhibitor; 0.5 µM; relative to: control): 98.4%
CC[C@@H](C)c1nc2cc(Nc3ccnc4ccc(S(=O)(=O)C(C)C)cc34)ccc2s1.Cl — survival (L929 RIPK3-/- reexpressing RIPK3 K51A/R69H; CCK-8; 1.563 µM): 98% and 99.1% and 90.2% and 97.7%
CC(C)(C)c1cc(C=C(C#N)C#N)cc(Br)c1O — remaining activity (Dual specificity tyrosine-phosphorylation-regulated kinase 3 (DYRK3, Homo sapiens, UniProt O43781); enzyme activity, inhibitor; 0.5 µM): 102%

Repeated from above (series 1):
YYNAFHWA: inactive
YAREAGIAM: inactive
HTLESPVEF: inactive
FYADPKRYF: inactive
